{"data": "Published values of several laboratories", "note": "A part holds a random share of what one study measured."}
{"data": "Set 1", "target": "Histone acetyltransferase KAT6A, both winged helices, GST fusion (KAT6A, Homo sapiens, UniProt Q92794, residues 1-181)", "technique": "protein binding microarray", "form": "double-stranded DNA, one strand shown", "sample": "in vitro", "concentration": "not given", "notes": "8-mer, flanks averaged, mean of 2 arrays, mostly near background", "relative to": "not given", "direction": "higher = stronger binding", "Residues (chain)": "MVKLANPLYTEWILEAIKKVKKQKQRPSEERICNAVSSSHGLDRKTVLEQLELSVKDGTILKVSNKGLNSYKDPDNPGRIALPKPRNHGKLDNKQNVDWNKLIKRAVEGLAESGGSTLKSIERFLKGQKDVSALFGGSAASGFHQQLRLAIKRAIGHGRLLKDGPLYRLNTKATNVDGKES"}
{"Sequence": "ACACGCGT", "E-score": 0.27}
{"Sequence": "ACCTGGCT", "E-score": -0.109}
{"Sequence": "AATGGATA", "E-score": -0.142}
{"Sequence": "ATGGACCA", "E-score": -0.16}
{"Sequence": "AGTTTGAC", "E-score": 0.0279}
{"Sequence": "AGTAGCAT", "E-score": -0.192}
{"Sequence": "CACAGGCG", "E-score": 0.0593}
{"Sequence": "GTGGGATA", "E-score": -0.0383}
{"Sequence": "CCGATGTC", "E-score": 0.0125}
{"Sequence": "ATCGGATA", "E-score": 0.0329}
{"Sequence": "CCGTTTCA", "E-score": 0.145}
{"Sequence": "CACACGCG", "E-score": 0.288}
{"Sequence": "AGGGTAGG", "E-score": -0.15}
{"Sequence": "ATCTTATA", "E-score": -0.206}
{"Sequence": "CACATGAC", "E-score": -0.114}
{"Sequence": "ATCTTCTC", "E-score": -0.0298}
{"Sequence": "ATTGACTG", "E-score": -0.166}
{"Sequence": "CGCTGGGC", "E-score": 0.0698}
{"Sequence": "GGGCTACA", "E-score": -0.0475}
{"data": "Set 2", "target": "Ras GTPase-activating protein-binding protein 1, RRM domain (G3BP1, Homo sapiens, UniProt Q13283)", "technique": "RNA Bind-n-Seq", "form": "RNA", "sample": "in vitro", "concentration": "1 µM", "notes": "whole 134-nt RNA, ends assumed", "together with": "150 mM KCl", "relative to": "input library", "direction": "higher = stronger binding", "shared flanks, not repeated": "GGGAGUUCUACAGUCCGACGAUC … UGGAAUUCUCGGGUGUCAAGG", "sequence of UniProt Q13283 (whole entry, looked up)": "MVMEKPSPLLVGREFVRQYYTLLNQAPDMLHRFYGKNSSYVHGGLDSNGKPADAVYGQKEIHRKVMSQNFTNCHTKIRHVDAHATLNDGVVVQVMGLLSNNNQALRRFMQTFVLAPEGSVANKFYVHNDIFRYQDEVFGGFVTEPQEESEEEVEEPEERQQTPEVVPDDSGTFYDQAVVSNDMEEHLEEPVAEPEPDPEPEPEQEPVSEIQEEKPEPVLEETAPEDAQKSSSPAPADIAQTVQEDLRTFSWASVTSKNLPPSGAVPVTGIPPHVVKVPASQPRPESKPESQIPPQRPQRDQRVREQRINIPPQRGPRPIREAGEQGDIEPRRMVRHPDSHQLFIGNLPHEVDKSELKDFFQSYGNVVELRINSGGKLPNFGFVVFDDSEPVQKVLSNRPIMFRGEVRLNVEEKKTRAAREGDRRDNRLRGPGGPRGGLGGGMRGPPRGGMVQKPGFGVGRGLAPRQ"}
{"Sequence": "UGGCCCUGGUGGCAUGCGGGGAGGAAGAGGCGGCCUCAUGGAUCGUGGUGGUCCCGGUGGAAUGUUCAGAGGUGGCCGUGGUGGAGACAG", "log2 enrichment": 0.982}
{"Sequence": "UCCUGUGCUACACAUCGUAUGUACCGAAUCGGGGUGGGGUUUUUUUGGGGAAAAAGGGGAAAGUAUUAUGUUACGCCGUUCGGAUCUGCA", "log2 enrichment": 0.768}
{"Sequence": "UCAAGUCCUGUGCUACACAUCGUAUGUACCGAAUCGGGGCCGGGCCGGCCGGGGAAAGUAUUAUGUUACGCCGUUCGGAUCUGCACUUCC", "log2 enrichment": -0.707}
{"Sequence": "CACAGACAACACGCACCCAAACAGACACAGAGGGAAGGGGUUGGGAUGGGGACAGGGUGCACAGCAGGGCGGGGUAGGACCCCAGCCCCU", "log2 enrichment": -0.142}
{"Sequence": "UGGGUGAAGAGGGACAGUUACCUUCCUGUGGGCAGUCAUAAUCUCAAGGCGGCCGCCAAGGCCAAGCUAGGCUAUGAUCCCGUGGAGCUA", "log2 enrichment": -0.307}
{"Sequence": "AGUCCUGUGCUACACAUCGUAUGUACCGAAUCGGGAAAAAAAGGGAAAAAGGGUGGGAAAGUAUUAUGUUACGCCGUUCGGAUCUGCACU", "log2 enrichment": 0.677}
{"Sequence": "GCAGGAAGUAAAAACAAAUGGAAAUGCUUCCGAUAGUGGCAGGGGUGGGGGUUGCUAAGGAAAGGGUGGGAUGGGAGUGGGUAAAGAGUU", "log2 enrichment": 1.34}
{"Sequence": "GUCCUGUGCUACACAUCGUAUGUACCGAAUCAAAUUUUUUUAAACCCAAACCCCCAAAAAAGUAUUAUGUUACGCCGUUCGGAUCUGCAC", "log2 enrichment": -1.24}
{"Sequence": "UCAAGUCCUGUGCUACACAUCGUAUGUACCGAAUCGGAAAAAAAGGAGGUUUGGAAAGUAUUAUGUUACGCCGUUCGGAUCUGCACUUCC", "log2 enrichment": -0.245}
{"Sequence": "AAGUCCUGUGCUACACAUCGUAUGUACCGAAUCGGGUGGGAAAGGGAAAAAAAGGGAAAGUAUUAUGUUACGCCGUUCGGAUCUGCACUU", "log2 enrichment": 0.382}
{"Sequence": "CCUGUGCUACACAUCGUAUGUACCGAAUCGGGCCCCCCGGGGCCCCCCGGGCCCCCCGGGGAAAGUAUUAUGUUACGCCGUUCGGAUCUG", "log2 enrichment": -0.654}
{"Sequence": "ACCAUGCAGGUGGGCAUCUUUGGGAAGUGGGGCAAGGGGGGGAUAGGGAGGGGGGUAACACUUUGGGAACAGGUGGUCCCAGGUCGGUUC", "log2 enrichment": 0.438}
{"Sequence": "CAAGUCCUGUGCUACACAUCGUAUGUACCGAAUCGGGUUUUGGUUUUGGUUUUGGGAAAGUAUUAUGUUACGCCGUUCGGAUCUGCACUU", "log2 enrichment": -0.386}
{"Sequence": "ACCAUGCAGGUGGGCAUAUUUGGGAAGUGGGGCAAGGGGGGGAUAGGGAGGGGGGUAACACUUUGGGAACAGGUGGUCCCAGGUCGUUUC", "log2 enrichment": -0.418}
{"data": "Set 3", "target": "RNA binding protein fox-1 homolog 2, RRM domain, GST-SBP tag (RBFOX2, Homo sapiens, UniProt O43251-10, residues 100-194)", "technique": "RNA Bind-n-Seq", "form": "RNA", "sample": "in vitro", "concentration": "365 nM", "notes": "natural RNA segment, single round, ends assumed", "relative to": "no-protein control", "direction": "higher = stronger binding", "shared flanks, not repeated": "GGGAGUUCUACAGUCCGACGAUC … UGGAAUUCUCGGGUGCCAA"}
{"Sequence": "AGAUGGCUACAGGAGCUUUUGGACUCACAGCCUCUGCUCUAGAGGUGUUGUGUAUGGGCUGCUAAUUGUUAUGAAUAAAAUACCCAACCCUAGGCUGCAGAGAAGCCCGU", "RBNS enrichment (R)": 1.33}
{"Sequence": "GCCAGCACUUUAUACCAACUCAGCAUUUAAGGGAAGUAUCUUAGAUUGCCUCCAUCUCAAUGUGAAUGCACCAGGCUGAGGGUUCCCUAGCGCCUUGAGUCAAGGCCACU", "RBNS enrichment (R)": 0.457}
{"Sequence": "CCCUGGCAACCCUGAUUGAUUAUCUGAUCCUAUAAUUUUGCCUUUUCUAGAAUGUCAUAUAAAUGGAGUCACACUGAUGUCGCCUUUUGAGUCUGGCAUCUUUCCCUCAG", "RBNS enrichment (R)": 0.932}
{"Sequence": "UUUGUUUCCAGACCUGAUUAAAAUUUGGUUUAUUCUAAUUUCUGUACUAUAUCAUCUGAGGUUUUAAGUGGUAACUGGUUCUAUACCAUGUAUGUAUCAUAUGUUUGUUC", "RBNS enrichment (R)": 1}
{"Sequence": "CAUGGCAAAUCUGAUUUGUGUAGUGUGCUUACAAUGCUCAUUUGUUUUCAAAUUGGUGGAAAAGAGAAACUGCAGGAAAACUAUUCAUGUUUGAGUUUUACGCAGUAUAU", "RBNS enrichment (R)": 0.928}
{"Sequence": "AAGCUAAUAUUUUUUUAAAGUUACAUUAAGAUUUUUUCUCUUUUGCAGCUACAUUUGAAAGUGAUAGAAUAAAGAGAUUUUAAUGAGUUAUCACUUUUUCAGCUGAUAUA", "RBNS enrichment (R)": 0.679}
{"Sequence": "AAUGCUGUGUUUGUUGUAAAGGUUUCCAGGACUGAGACCUUAUUCCCUGGGCUUCGUGAAAUGGCACAGUCAUUGGUAAUCUUCAAAAAGCCAGAAGCCCAGGACCUCCU", "RBNS enrichment (R)": 0.641}
{"Sequence": "CCAGAAUGAGAGACUCAGCCCAGGAGGACCAGGAUCUUGCCAAAGCAGUAGCAUCCCAUUUGUACCAAAACAGUGUUCUUGCUCUAUAAACCGUGUUAGCAGCUCAGGAA", "RBNS enrichment (R)": 0.841}
{"Sequence": "CCCAGGCUGCUGCUCUGUGGUAUUUCCAGUCUCAGACUUGUGUUGUGGAGUCAUGGUGUUAGUGUUCUGCCUUUUUAUGUUCUAAGACUACUUGUUAGAGGACGGAAGAU", "RBNS enrichment (R)": 0.532}
{"Sequence": "AAAAUUUAUCGGCCUUUCUCAUUUACCUGCUCUAGUAUUAUUGUAUUGUGUGUGCGUGCGUGUGUGAUGUCAGGCUGCCACGUAAAACUUCAGAGAAAAAUCUUAAAAGC", "RBNS enrichment (R)": 1.19}
{"Sequence": "UUAAAGGCUUUAAAACAUUAGGGAGGCAGUCUAGGGUGAUAACGAACAGGGGUUAAGUAUUAAAUACACGAAGUUACAUUUUUGUUCAUGUUUCAUUGUCCAGAAAGCAG", "RBNS enrichment (R)": 0.456}
{"Sequence": "ACCAGAAGGGGCUGAGCCCCACCCUGGAGUGGGCUUGCACCUGGUAGGUGUGCAAGAAGCCAUUUCCCCAUAAGCACUGGCCUUUGAUGGCCCCCUCAGCCUACCUGGUG", "RBNS enrichment (R)": 0.6}
{"data": "Set 4", "target": "Interferon regulatory factor 3, full length, phosphomimetic (IRF3, Homo sapiens, UniProt Q14653, residues 1-427, S386D/S396D/S398D/S402D/T404D/S405D)", "technique": "protein-binding microarray", "form": "double-stranded DNA, one strand shown", "sample": "in vitro", "concentration": "2540 nM top", "notes": "60-bp whole probe", "together with": "salmon DNA 0.4 mg/ml", "relative to": "random background probes", "direction": "higher = stronger binding", "shared flanks, not repeated": "GCCTAGCAC … GTCTTGATTCGCTTGACGCTGCTG", "Construct (chain)": "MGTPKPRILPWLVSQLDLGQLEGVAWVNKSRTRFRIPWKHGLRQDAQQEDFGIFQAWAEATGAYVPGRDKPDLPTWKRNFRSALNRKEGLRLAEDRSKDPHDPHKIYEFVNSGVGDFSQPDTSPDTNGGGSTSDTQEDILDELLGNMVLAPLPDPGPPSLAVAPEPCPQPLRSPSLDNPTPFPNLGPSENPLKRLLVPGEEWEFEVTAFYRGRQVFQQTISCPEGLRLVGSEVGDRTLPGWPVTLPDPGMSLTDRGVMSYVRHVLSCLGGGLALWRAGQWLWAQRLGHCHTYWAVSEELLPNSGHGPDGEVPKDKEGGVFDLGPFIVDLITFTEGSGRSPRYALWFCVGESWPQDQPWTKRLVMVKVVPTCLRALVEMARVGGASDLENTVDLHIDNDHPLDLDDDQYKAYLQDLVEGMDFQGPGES"}
{"Sequence": "TTAGATTTCAGGCTCGATTAGTGCTAG", "fitted relative affinity": "0.486 z-score"}
{"Sequence": "TTAGGGCTCCTTTTCCTTTAGTGCTAG", "fitted relative affinity": "3.8 z-score"}
{"Sequence": "TCACTGCTCCTCTTTTTTACTGTGCTA", "fitted relative affinity": "0.278 z-score"}
{"Sequence": "TTAGATATCTGGTATCGATTAGTGCTA", "fitted relative affinity": "0.385 z-score"}
{"Sequence": "TTAGATCTCAGTCTCGATTTGTGCTAG", "fitted relative affinity": "0.86 z-score"}
{"Sequence": "TCTAATTTACTTTGGTTGGCGTGCTAG", "fitted relative affinity": "-0.129 z-score"}
{"Sequence": "TTAGGTTTCCTACAGCTTTAGTGCTAG", "fitted relative affinity": "2.51 z-score"}
{"Sequence": "GACGATTCCAGTTTCAAGACGTGCTAG", "fitted relative affinity": "2.25 z-score"}
{"Sequence": "CCCTATTTAAGGCTAGGCACGTGCTAG", "fitted relative affinity": "1.41 z-score"}
{"Sequence": "TTAGGACTGGCACTGGGTTAGTGCTAG", "fitted relative affinity": "-0.886 z-score"}
{"Sequence": "TCAGATTTTGCTTTCATACTGTGCTAG", "fitted relative affinity": "1.45 z-score"}
{"Sequence": "GACGATCTCAGTTTCGAGGCGTGCTAG", "fitted relative affinity": "2.13 z-score"}
{"Sequence": "TTAGATTTCAGTATCGATCAGTGCTAG", "fitted relative affinity": "2.31 z-score"}
{"Sequence": "TTACGTTTCGGTATCGGTTAGTGCTAG", "fitted relative affinity": "7.62 z-score"}
{"Sequence": "TTAGGTATCGACACTGGATTAGTGCTA", "fitted relative affinity": "0.289 z-score"}
{"Sequence": "CTAGGTCTCGGTCTCGGTTAGTGCTAG", "fitted relative affinity": "1.11 z-score"}
{"Sequence": "TAAGGACTGGACTATCGGTTAGTGCTA", "fitted relative affinity": "-0.516 z-score"}
{"Sequence": "TCAGAACTCAACTGTCTGACTGTGCTA", "fitted relative affinity": "0.173 z-score"}
{"Sequence": "GACGCTATCAGTTTCGAGACGTGCTAG", "fitted relative affinity": "3.3 z-score"}
{"Sequence": "GACGATTTCGGGAATGGAGACGTGCTA", "fitted relative affinity": "1.3 z-score"}
{"Sequence": "GACGATATCTGTTTCGAGACGTGCTAG", "fitted relative affinity": "2.5 z-score"}
{"Sequence": "GATGATATCAGACTGGAGACGTGCTAG", "fitted relative affinity": "-0.181 z-score"}
{"Sequence": "TTTGGACTGGGGTATCGGTTAGTGCTA", "fitted relative affinity": "-0.0796 z-score"}
{"Sequence": "GAAGGTTTCCTTTCCCTGACGTGCTAG", "fitted relative affinity": "10.6 z-score"}
{"Sequence": "GACGGACTGCGACTGCTGACGTGCTAG", "fitted relative affinity": "-0.893 z-score"}
